Assay results of several laboratories.
Each line is one published result; not all experiments were run side by side. Numbers after ± are the reported error. Square brackets hold non-standard residues; d marks the D form. Ends that are not written are not given here.
C5a: C5a (Homo sapiens, UniProt P01031)
Sequence of UniProt P01031 (whole entry, looked up): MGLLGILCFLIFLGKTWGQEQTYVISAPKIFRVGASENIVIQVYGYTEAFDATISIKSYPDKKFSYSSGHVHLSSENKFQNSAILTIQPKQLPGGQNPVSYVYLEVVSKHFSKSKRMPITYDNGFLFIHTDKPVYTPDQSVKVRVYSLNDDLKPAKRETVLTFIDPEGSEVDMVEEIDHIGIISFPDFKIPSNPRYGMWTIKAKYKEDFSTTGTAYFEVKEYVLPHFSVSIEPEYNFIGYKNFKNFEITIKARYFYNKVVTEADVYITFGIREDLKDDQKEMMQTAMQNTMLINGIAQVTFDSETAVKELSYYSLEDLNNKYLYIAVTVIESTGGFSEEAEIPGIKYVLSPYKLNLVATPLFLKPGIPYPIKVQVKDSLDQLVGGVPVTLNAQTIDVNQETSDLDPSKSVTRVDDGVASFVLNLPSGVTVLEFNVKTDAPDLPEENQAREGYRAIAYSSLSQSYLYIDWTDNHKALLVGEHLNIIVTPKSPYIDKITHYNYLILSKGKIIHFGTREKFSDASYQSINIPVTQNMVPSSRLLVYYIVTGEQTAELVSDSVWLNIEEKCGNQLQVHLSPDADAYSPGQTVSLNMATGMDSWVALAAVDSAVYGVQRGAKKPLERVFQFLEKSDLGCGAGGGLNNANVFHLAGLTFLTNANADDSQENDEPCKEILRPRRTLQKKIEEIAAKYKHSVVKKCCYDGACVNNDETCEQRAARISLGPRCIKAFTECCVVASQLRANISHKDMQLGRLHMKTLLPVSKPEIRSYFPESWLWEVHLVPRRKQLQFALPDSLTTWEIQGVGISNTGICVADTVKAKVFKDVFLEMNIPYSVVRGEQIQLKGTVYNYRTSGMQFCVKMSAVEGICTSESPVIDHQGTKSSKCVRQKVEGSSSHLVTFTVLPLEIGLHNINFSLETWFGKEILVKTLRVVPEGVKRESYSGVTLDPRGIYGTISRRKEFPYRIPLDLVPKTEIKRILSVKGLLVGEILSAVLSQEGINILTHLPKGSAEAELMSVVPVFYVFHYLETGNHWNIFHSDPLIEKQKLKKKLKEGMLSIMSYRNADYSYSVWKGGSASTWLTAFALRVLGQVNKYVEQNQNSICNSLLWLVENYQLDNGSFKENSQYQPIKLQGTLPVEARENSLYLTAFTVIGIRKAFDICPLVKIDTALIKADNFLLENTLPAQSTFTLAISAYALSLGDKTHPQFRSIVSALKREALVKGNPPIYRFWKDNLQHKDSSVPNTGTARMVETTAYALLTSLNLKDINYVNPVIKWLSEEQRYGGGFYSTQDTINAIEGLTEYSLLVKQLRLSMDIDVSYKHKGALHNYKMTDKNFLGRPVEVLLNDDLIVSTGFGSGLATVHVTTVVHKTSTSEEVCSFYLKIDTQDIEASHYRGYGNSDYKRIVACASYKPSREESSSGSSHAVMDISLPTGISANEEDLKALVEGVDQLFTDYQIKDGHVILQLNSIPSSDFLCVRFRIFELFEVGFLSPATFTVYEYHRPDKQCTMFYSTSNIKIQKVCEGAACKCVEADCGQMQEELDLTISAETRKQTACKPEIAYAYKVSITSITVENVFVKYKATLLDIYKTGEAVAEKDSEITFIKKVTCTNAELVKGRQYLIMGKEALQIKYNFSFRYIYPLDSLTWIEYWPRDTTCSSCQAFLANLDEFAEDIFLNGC
PARP1 full length assumed: PARP1 full length assumed (Homo sapiens, UniProt P09874)
Sequence of UniProt P09874 (whole entry, looked up): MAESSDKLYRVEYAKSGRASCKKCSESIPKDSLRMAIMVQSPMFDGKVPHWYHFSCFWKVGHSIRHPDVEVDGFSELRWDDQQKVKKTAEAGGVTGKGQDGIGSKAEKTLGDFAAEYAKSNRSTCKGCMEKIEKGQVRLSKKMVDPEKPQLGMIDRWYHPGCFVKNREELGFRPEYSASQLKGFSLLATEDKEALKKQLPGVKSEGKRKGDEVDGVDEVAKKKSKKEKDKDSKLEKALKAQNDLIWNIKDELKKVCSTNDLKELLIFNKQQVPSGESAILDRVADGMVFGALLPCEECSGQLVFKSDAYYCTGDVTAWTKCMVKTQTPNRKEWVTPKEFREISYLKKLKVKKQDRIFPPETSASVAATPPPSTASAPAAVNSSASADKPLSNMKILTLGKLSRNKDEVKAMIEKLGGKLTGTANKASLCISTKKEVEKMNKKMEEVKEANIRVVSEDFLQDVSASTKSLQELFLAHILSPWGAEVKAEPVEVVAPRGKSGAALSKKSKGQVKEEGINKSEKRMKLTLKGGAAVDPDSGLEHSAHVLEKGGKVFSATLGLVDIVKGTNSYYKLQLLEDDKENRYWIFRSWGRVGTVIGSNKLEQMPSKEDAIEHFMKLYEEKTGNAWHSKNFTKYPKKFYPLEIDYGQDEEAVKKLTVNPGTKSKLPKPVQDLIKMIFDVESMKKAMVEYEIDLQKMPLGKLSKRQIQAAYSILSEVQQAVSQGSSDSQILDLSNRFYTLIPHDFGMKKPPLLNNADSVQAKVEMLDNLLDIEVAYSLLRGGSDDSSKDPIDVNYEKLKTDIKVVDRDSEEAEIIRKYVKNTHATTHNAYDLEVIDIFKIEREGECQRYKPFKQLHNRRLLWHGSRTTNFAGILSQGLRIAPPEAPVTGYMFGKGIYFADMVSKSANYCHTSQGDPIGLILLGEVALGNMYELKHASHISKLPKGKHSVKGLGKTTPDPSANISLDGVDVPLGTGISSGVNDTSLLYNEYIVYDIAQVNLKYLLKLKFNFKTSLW
RNA polymerase holoenzyme sigma70: RNA polymerase holoenzyme sigma70 (Escherichia coli)
T1: MBNL1 1-382 (Homo sapiens); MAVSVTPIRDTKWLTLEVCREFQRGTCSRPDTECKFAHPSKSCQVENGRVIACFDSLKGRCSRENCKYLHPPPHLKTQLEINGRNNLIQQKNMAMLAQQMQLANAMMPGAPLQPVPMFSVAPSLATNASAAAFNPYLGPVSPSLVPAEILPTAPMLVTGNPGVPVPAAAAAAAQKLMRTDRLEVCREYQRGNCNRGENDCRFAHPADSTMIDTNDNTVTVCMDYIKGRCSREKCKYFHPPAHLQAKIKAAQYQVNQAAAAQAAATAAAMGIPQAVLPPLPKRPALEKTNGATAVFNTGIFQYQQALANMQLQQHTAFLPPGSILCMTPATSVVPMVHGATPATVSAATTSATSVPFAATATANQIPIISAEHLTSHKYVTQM
B1: enzyme (Bacillus pumilus, UniProt A8FFI9); chain EARSIAWSVDEFFKNREGTFVIQEVKEKSPWVYNKKRAKERFAPQSTFKVANALIGLQTGAVRDEYDIKYWDGVKREIDNWNRDHTLGSGMRDSVVWYYQAMARDIGEERMNHWVKAIHYGNKDISGGIDQFWLSSTLRISPIEQVRFLKQLYEETLPFDLKNMRTVKRMMVQEEEKHATLYGKTGSGSDIGWYVGFIKHEHKTYILATNIKGTGIEAKDITYRILKKYHLMEASV
Sequence of UniProt Q9BQB4 (whole entry, looked up): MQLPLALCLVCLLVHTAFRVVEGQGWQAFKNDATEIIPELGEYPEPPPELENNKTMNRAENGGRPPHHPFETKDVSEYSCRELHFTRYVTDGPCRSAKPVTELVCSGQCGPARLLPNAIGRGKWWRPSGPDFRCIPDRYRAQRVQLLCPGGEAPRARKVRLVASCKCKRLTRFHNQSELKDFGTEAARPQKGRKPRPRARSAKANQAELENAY
Sequence of UniProt P25799 (whole entry, looked up): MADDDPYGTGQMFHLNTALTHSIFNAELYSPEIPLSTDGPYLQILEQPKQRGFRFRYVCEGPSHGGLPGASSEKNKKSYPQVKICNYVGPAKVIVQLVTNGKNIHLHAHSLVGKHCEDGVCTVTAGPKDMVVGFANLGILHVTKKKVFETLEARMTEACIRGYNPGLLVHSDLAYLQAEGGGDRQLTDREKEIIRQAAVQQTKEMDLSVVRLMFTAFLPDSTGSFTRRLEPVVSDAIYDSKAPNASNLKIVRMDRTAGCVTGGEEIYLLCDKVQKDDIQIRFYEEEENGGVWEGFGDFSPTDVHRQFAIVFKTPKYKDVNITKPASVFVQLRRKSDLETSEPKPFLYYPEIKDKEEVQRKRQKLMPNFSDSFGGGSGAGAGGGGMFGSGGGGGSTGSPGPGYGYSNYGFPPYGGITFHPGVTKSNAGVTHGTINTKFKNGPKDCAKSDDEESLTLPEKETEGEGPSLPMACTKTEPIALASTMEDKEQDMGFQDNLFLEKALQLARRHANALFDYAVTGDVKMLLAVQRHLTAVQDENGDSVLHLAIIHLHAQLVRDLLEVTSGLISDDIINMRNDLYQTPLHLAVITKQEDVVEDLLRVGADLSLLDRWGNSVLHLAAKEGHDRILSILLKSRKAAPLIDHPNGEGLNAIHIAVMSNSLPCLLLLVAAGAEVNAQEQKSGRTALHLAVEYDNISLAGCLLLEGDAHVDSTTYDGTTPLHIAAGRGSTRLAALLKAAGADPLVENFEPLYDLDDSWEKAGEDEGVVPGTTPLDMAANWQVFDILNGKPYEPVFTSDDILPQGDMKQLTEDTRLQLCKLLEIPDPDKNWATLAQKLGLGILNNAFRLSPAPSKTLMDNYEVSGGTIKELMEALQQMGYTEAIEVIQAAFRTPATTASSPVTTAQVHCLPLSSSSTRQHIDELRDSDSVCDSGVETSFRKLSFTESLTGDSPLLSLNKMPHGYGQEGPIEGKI
Sequence of UniProt Q13325 (whole entry, looked up): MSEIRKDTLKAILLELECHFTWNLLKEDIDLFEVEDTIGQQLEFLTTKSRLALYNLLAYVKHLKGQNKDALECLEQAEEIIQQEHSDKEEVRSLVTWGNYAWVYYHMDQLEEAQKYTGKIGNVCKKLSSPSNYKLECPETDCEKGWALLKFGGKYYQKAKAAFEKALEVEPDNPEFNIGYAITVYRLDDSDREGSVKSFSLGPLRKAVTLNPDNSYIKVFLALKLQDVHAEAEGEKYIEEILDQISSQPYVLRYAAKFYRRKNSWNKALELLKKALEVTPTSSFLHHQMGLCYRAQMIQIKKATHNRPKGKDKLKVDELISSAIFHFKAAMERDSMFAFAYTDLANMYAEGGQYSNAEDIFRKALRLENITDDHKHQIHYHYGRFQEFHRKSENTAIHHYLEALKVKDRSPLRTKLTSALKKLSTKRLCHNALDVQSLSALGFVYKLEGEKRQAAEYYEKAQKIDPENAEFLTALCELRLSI
Sequence of UniProt Q8H1D4 (whole entry, looked up): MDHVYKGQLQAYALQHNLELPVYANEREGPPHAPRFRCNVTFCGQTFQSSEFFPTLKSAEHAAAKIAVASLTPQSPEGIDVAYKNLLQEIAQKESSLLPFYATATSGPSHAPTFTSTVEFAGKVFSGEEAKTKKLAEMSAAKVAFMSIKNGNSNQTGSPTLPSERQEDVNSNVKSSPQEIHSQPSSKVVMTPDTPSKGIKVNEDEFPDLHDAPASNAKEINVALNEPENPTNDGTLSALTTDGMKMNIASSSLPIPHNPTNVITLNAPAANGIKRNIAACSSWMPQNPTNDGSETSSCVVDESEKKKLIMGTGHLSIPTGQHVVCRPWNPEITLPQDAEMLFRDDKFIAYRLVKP
Sequence of UniProt Q969S2 (whole entry, looked up): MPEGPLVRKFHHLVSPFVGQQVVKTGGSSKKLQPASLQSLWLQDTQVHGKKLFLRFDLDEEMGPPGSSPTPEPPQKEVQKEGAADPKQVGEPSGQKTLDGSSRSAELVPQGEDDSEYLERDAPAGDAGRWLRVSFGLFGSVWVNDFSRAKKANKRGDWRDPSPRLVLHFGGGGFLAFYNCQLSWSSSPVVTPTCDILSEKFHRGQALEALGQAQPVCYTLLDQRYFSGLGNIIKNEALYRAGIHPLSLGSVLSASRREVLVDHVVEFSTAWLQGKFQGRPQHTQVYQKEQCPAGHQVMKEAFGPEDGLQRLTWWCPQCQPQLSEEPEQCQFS

Molecule = CGCTAGGATCNGGCCCCGCC / GGCGGGGCCGGATCCTAGCG (dsDNA; blunt, tetrahydrofuran abasic site opposite G); tested on = NEIL2 full length assumed (Homo sapiens, UniProt Q969S2); assay = EMSA; conditions = apparent, cooperative fit; quantity = Kd; result = 24 nM
Molecule = UGAGGUAGUAGGUUGUAUAGUU / CUAUACAACCUACUACCUCANN (dsRNA; 3' overhang 2 nt); tested on = DBR4 1-153 (Arabidopsis thaliana, UniProt Q8H1D4); assay = ITC; conditions = averaged single site; quantity = Kd; result = 2400 ± 300 nM
Molecule = GCCGAUGUGGUGGUGAAGGGUUGUUGGGUGUCGACGCACGGC (L-RNA; terminal stem, six DNA residues); tested on = C5a; assay = SPR; quantity = Kd; result = 0.3 nM
Molecule = CAGCAGCAGCAGCAGCAGCAGCAGCAGCAGCAGCAGCAGCAGCAGCAGCAGCAGCAGCAGCAGCAGCAGCAGCAGCAGCAGCAGCAGCAGCAGCAGCAGCAGCAGCAGCAGCAGCAGCAGCAGCAGCAGCAGCAGCAGCAGCAGCAGCAGCAGCAGCAGCAG (structured RNA); tested on = T1, MBNL1 1-382 (Homo sapiens); assay = filter binding; quantity = Kd; result = 11.2 ± 1.5 nM
Molecule = B1 (enzyme); tested on = CC(=O)OCC1=C(C(=O)O)N2C(=O)[C@@H](NC(=O)Cc3cccs3)[C@H]2SC1; assay = steady-state kinetics; conditions = pH 7; quantity = kcat/Km; result = 12000 ± 1000 M⁻¹ s⁻¹
Molecule = TAGACGTCCTCGCATCAAGATGCTGCTGCCATCTTATATTTTCTATACAATAAGTATAGAAAATATAAGATGGCAGCAGCATCTTGATGCGAGGACGTC (dsDNA; hairpin, AATAA loop, 5' overhang 2-nt); tested on = SPO11/TOP6BL (Mus musculus); assay = EMSA; conditions = without Mg2+; quantity = Kd; result = 30.5 ± 2.63 nM
Molecule = SLN[pY]IDLDLVK[dPEG8]LST[pY]ASINFQK (phospho-Tyr, PEG8-linked dimer; pY = N[C@@H](Cc1ccc(OP(=O)(O)O)cc1)C(=O)O); tested on = PTPN11 (Homo sapiens, UniProt Q06124); assay = phosphatase activity, activator; conditions = wild-type enzyme, added: DiFMUP 200 µM; quantity = EC50; result = 250 nM
Molecule = UGT1A9 (Homo sapiens, UniProt O60656); tested on = O=c1c(O)c(-c2ccccc2)oc2ccccc12; assay = steady-state kinetics; conditions = pH 7.4, 37 °C; quantity = Vmax/Km; result = 7000 µL/min/mg
Molecule = TGGCGACGGCAGCGAGGCTTTTTTTTTTTTTTTTTTTTTTTTTTTTTTTTTTTTTTTTTTTTTTTTTTTTTT / GCCTCGCTGCCGTCGCCA (DNA duplex; 18 bp, 3' overhang, C6-amino-dT); tested on = dnaA 77-399 (Aquifex aeolicus, UniProt O66659); assay = smFRET; conditions = added: ADP-BeF3 1 mM; quantity = Kd; result = 5000 nM
Molecule = GATCCAGAGGGGACTTTCCGAGAG (dsDNA); tested on = Nfkb1 1-431 (Mus musculus, UniProt P25799); assay = competition; system = double-stranded DNA, one strand shown, crude extract; conditions = not purified; scale = reference: B2 oligo equal competitor, lower = stronger competition; quantity = relative binding; result = 1 fold
Molecule = human neutrophil elastase; tested on = Protein S100-A9 (S100A9, Homo sapiens, UniProt P06702); assay = ELISA; conditions = up to 100 nM; quantity = binding; result = no binding
Molecule = CAACTGAGACCATGTACCCAGTTCGAATCGGATGTATATATCTGACACGTGCCTGGAGACTAGGGAGTAATCCCCTTGGCGGTTAAAACGCGGGGGACAGCGCGTACGTGCGTTTAAGCGGTGCTAGAGCTGTCTACGACCAATTGAGCGGCCTCGGCACCGGGATTCTCGATAACTCAGCAATAGTGGGTCTCA / ACCATGAGACCCACTATTGCTGAGTTATCGAGAATCCCGGTGCCGAGGCCGCTCAATTGGTCGTAGACAGCTCTAGCACCGCTTAAACGCACGTACGCGCTGTCCCCCGCGTTTTAACCGCCAAGGGGATTACTCCCTAGTCT / CCAGGCACGTGTCAGATATATACATCCGATTCGAACTGGGTACATGGTCTCA (dsDNA; nucleosome, nick with 5'-OH); tested on = PARP1 full length assumed; assay = optical tweezers; conditions = single molecule, not purified, added: force 4 pN; quantity = Kd; result = 4 ± 0.5 nM
Molecule = GGGAGACCGGCCUCGA (ssRNA; 5' triphosphate, linear); tested on = IFIT5 full length assumed (Homo sapiens, UniProt Q13325); assay = BLI; conditions = without Mg2+; quantity = Kd; result = 42.7 nM
Molecule = CGGGGNGTGGGTTCGTCGTTAGCTTGATTTGGCAGCTGCC (XNA; 5-quinoline nucleotide position 6); tested on = SOST 24-213 (Homo sapiens, UniProt Q9BQB4); assay = BLI; quantity = Kd; result = 3.86 nM
Molecule = GCGGACGGACAGAGAGUGCAACCUGCCGUGCCGC (ssRNA; 2'-F pyrimidines, 5' thiol-C6); tested on = ITGA5/ITGB1 on cells (Homo sapiens); assay = flow cytometry; system = T24; conditions = apparent, no added Mg2+/Ca2+, not purified; quantity = Kd; result = 226 ± 30.8 nM
Molecule = GAGGCCCTTTCGTCTTCAAGAATTCTATTTGACAAAAATGGGCTCGTGTTGTACAATAAATGTGTCTAAGCTTGGGTCCCACCTGAC (dsDNA (Bacillus subtilis); blunt); tested on = RNA polymerase holoenzyme sigma70; assay = EMSA; system = double-stranded DNA, one strand shown; quantity = Kd; result = 30.6 ± 3 nM
Molecule = S. cerevisiae FACT complex; tested on = HTB1/HTA1 (Saccharomyces cerevisiae, UniProt P02293+P04911); assay = EMSA; conditions = first binding event, added: FACT 200 nM; quantity = Kd; result = ~100 nM
Molecule = GUGAUGUGGUGGUGAAGGGUUGUUGGGUGUCGACGCACAC (L-RNA; terminal stem, six DNA residues); tested on = C5a; assay = SPR; quantity = Kd; result = 0.8 nM
Molecule = GACGTCCTCGCATCAAGATGCTGCTGCCATCTTATATTTTCTATACAATAAGTATAGAAAATATAAGATGGCAGCAGCATCTTGATGCGAGGACGTC (dsDNA; hairpin, AATAA loop, blunt end); tested on = SPO11/TOP6BL (Mus musculus); assay = EMSA; conditions = without Mg2+; quantity = Kd; result = 47.8 ± 2.14 nM
Molecule = GGTGCGCATAATGTATATTATGTTAAAT (dsDNA (Escherichia coli)); tested on = XerC/XerD (Escherichia coli); assay = EMSA; system = double-stranded DNA, one strand shown; conditions = cooperative; quantity = K1/2; result = < 1 nM
Molecule = GAGGCCCTTTCGTCTTCAAGAATTCTATTTGACAAAAATGGGCTCGTGTTGTACAATAAATGTGTCTAAGCTTGGGTCCCACCTGAC (dsDNA (Bacillus subtilis); blunt, A replaced by 7-methyl-7-deazaadenine); tested on = RNA polymerase holoenzyme sigma70; assay = EMSA; system = double-stranded DNA, one strand shown; quantity = Kd; result = 54.3 ± 4.4 nM
Molecule = SRP1 (Saccharomyces cerevisiae, UniProt Q02821); tested on = HEH2 100-137 (Saccharomyces cerevisiae, UniProt Q03281); assay = wide-field microscopy; system = yeast; scale = higher = more cells enriched; quantity = co-enrichment at peripheral ER; result = 45%
Molecule = GCCUGAUGUGGUGGUGAAGGGUUGUUGGGUGUCGACGCACAGGC (L-RNA; terminal stem); tested on = C5a; assay = SPR; quantity = Kd; result = 1.36 nM
Molecule = CAACTGAGACCATGTACCCAGTTCGAATCGGATGTATATATCTGACACGTGCCTGGAGACTAGGGAGTAATCCCCTTGGCGGTTAAAACGCGGGGGACAGCGCGTACGTGCGTTTAAGCGGTGCTAGAGCTGTCTACGACCAATTGAGCGGCCTCGGCACCGGGATTCTCGATAACTCAGCAATAGTGGGTCTCA / ACCATGAGACCCACTATTGCTGAGTTATCGAGAATCCCGGTGCCGAGGCCGCTCAATTGGTCGTAGACAGCTCTAGCACCGCTTAAACGCACGTACGCGCTGTCCCCCGCGTTTTAACCGC / CAAGGGGATTACTCCCTAGTCTCCAGGCACGTGTCAGATATATACATCCGATTCGAACTGGGTACATGGTCTCA (nucleosome DNA; nicked bottom strand, 5'-OH); tested on = PARP1 full length assumed; assay = optical tweezers; conditions = single molecule, not purified, added: force 4 pN; quantity = Kd; result = 3.9 ± 0.4 nM
Molecule = GGACAGGACCACACCCAGCGCGGTCGGCGGGTGGGCGGGGGGAGAACGAGGTAGGGGTCAGGCTCCTGTGTGTCGCTTTGT (ssDNA); tested on = LDLR fragment (Homo sapiens); assay = flow cytometry; system = MDA-MB-231; conditions = in cells, tRNA competitor, not purified; quantity = Kd; result = 252 nM
Molecule = GAGUUGAGUUGAGUUGAGUUGAGUUGAGUUGAGUUGAGUUGAGUUGAGUUGAGUU (ssRNA; single strand); tested on = mtrB full length assumed T30N (Bacillus subtilis, UniProt P19466); assay = filter binding; conditions = added: no tryptophan; quantity = Kd; result = 518 ± 70 nM

For quick reference, copied from above:
Molecule = CAACTGAGACCATGTACCCAGTTCGAATCGGATGTATATATCTGACACGTGCCTGGAGACTAGGGAGTAATCCCCTTGGCGGTTAAAACGCGGGGGACAGCGCGTACGTGCGTTTAAGCGGTGCTAGAGCTGTCTACGACCAATTGAGCGGCCTCGGCACCGGGATTCTCGATAACTCAGCAATAGTGGGTCTCA / ACCATGAGACCCACTATTGCTGAGTTATCGAGAATCCCGGTGCCGAGGCCGCTCAATTGGTCGTAGACAGCTCTAGCACCGCTTAAACGCACGTACGCGCTGTCCCCCGCGTTTTAACCGCCAAGGGGATTACTCCCTAGTCT / CCAGGCACGTGTCAGATATATACATCCGATTCGAACTGGGTACATGGTCTCA (dsDNA; nucleosome, nick with 5'-OH); tested on = PARP1 full length assumed; assay = optical tweezers; conditions = single molecule, not purified, added: force 4 pN; quantity = Kd; result = 4 ± 0.5 nM
Molecule = TGGCGACGGCAGCGAGGCTTTTTTTTTTTTTTTTTTTTTTTTTTTTTTTTTTTTTTTTTTTTTTTTTTTTTT / GCCTCGCTGCCGTCGCCA (DNA duplex; 18 bp, 3' overhang, C6-amino-dT); tested on = dnaA 77-399 (Aquifex aeolicus, UniProt O66659); assay = smFRET; conditions = added: ADP-BeF3 1 mM; quantity = Kd; result = 5000 nM
Molecule = GAGUUGAGUUGAGUUGAGUUGAGUUGAGUUGAGUUGAGUUGAGUUGAGUUGAGUU (ssRNA; single strand); tested on = mtrB full length assumed T30N (Bacillus subtilis, UniProt P19466); assay = filter binding; conditions = added: no tryptophan; quantity = Kd; result = 518 ± 70 nM
Molecule = GUGAUGUGGUGGUGAAGGGUUGUUGGGUGUCGACGCACAC (L-RNA; terminal stem, six DNA residues); tested on = C5a; assay = SPR; quantity = Kd; result = 0.8 nM
